# Results collected from several papers.
# Parts stem from different laboratories: compare values within a part only. Substitutions count along the parent as printed.

# Study 1 — technique: protein-binding microarray; molecule type: double-stranded DNA, one strand shown; sample: in vitro; tested at: 2200 nM top; notes: 60-bp whole probe; with: salmon DNA 0.4 mg/ml; baseline: random background probes; reading: higher = stronger binding; constant ends, left off below: GCCTAGCAC … GTCTTGATTCGCTTGACGCTGCTG
# Target: Interferon regulatory factor 7, full length, phosphomimetic (IRF7, Homo sapiens, UniProt Q92985, residues 1-503, S471D/S472D/S475D/S476D/S477D/S483D/S484D/S487D)
# Construct (chain): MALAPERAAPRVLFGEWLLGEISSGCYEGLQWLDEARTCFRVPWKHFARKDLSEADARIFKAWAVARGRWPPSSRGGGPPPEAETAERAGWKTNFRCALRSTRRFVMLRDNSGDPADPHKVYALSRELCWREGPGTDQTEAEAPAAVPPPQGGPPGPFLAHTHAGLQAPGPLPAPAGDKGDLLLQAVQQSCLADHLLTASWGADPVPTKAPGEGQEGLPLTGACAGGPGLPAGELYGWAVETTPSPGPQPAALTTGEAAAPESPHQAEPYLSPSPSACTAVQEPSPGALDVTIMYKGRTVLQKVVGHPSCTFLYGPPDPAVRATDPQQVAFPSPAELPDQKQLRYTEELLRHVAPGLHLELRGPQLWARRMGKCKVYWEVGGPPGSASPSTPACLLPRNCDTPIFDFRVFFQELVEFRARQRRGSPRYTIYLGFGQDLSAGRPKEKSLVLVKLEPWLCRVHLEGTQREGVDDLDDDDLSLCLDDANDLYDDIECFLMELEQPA
Oligonucleotide,fitted relative affinity
GACGGTTTCGGGTTTTGGGACGTGCTA,7.71 z-score
TCAGTTATCCATCTCAAACTGTGCTAG,1.18 z-score
TCATTTCTCCTTTGTAAACTGTGCTAG,3.27 z-score
TCATAGTTTCTTTTCTTACTGTGCTAG,4.53 z-score
GACGGAATGGACACTGGGGACGTGCTA,-0.693 z-score
TTAGGTATCGGACTGGGCTAGTGCTAG,-0.316 z-score
TTAGATTCGAGTTTCGATTAGTGCTAG,6.19 z-score
GAAGGACTGCTACTGCTGACGTGCTAG,-0.494 z-score
TCAAAATTAGTGTTTGCCACTGTGCTA,-0.272 z-score
TTCTGAATGCCCTTCCATCACGTGCTA,1.06 z-score
TTCGATCTCAGTATCGATTAGTGCTAG,0.789 z-score
TTTGATATCGGGTATCGATTAGTGCTA,0.611 z-score
TCCATTTTCTAAATGCCCTGGTGCTAG,3.59 z-score
TTAGATCTCAGTAGCGATTAGTGCTAG,-0.36 z-score
TTAGGTTTCGACTATCGGCTAGTGCTA,3 z-score
TTAGATTTCAGTTTTGATTAGTGCTAG,2.3 z-score

# Study 2 — technique: RNA Bind-n-Seq; molecule type: RNA; sample: in vitro; tested at: 365 nM; baseline: no-protein control; reading: higher = stronger binding
# Target: RNA binding protein fox-1 homolog 2, RRM domain, GST-SBP tag (RBFOX2, Homo sapiens, UniProt O43251-10, residues 100-194)
# Notes: natural RNA segment, single round, ends assumed
# Constant ends, left off below: GGGAGUUCUACAGUCCGACGAUC … UGGAAUUCUCGGGUGCCAA
# Target sequence (chain): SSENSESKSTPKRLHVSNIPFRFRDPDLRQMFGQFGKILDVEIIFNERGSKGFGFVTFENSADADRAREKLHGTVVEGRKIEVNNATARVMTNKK
Oligonucleotide,RBNS enrichment (R)
GCUCUCUCAGAGGCGCCAGCCCCUCCCUCCCCAGCCGGAGGCGUCAUCUCUCUUCUGUACCACUAGAGGGAGCUCUGAUGCAGCUGGAGAGCAGCGCUCAAGGCUCUCGC,0.284
GUGCAGAUCUAUACUCAUUCCUUCAAAUACAUUACUCUGUUAAUCUCAAAGUGUGGCCAACUCCCAUUUACUUAGAGGCUGAUUAUCUAGUUUUGUAGUUCCUCAGGCCU,0.224
GUAUUUAUGAAUAUAUUGCUGUAAUUUCUGACAACAUCCAAAAAAUAAAAUCUUCCUAAAUUAUGUUAAGAGGAAAAUCUUUUUUAUGAUAUAAAACAAAGCCAAACAAA,0.466
CAGACUGGAAUUGUCCCCUCCUUGUUUUGGUACUGGUCCCACCCACUGUGGUCCCCUGGGCCCUGACCCCAGACAUGUAAAUACUCCUCAAAUUUGGAAAAGUUGUCCCA,0.593
UAGGACCUAAGGUGGUCCUCAUAAACUCCUGGGGGAAGCUGGGAGCAACUUCCUGGGAAGCUAAUUUAUUUGUCUAAAGGGUGGUGUGGGCAUCACCACCCUUGUUUGAU,0.793
ACCCUUGCAAAGUAAACAGCUUUCCCAGGUUCCAAGGCCAGUUUUCACUGCUAAGGACCGGAAGGACCCCUGCAUUGACACUCACCAGUACCGAGAAGGUCUAAGUAAAA,0.3
CAAAAUAUACCAUAGGCUAAAACUAAGGCUUUCACUCUAGAAUGCAAAGCUGUUUUGCAGCUGUUUUCCCUUAAAGAUGUCCUGUUGCUUUAGUGAUAUUUAGACCCCUC,0.33
GCCGAACUUCAGCCAUCAGAUCCUUCAAAGUGGAACUUUGGAUUGUUUUUACAGACAACAUCGAGUAAUGGCUUGUAAAUGUGAAUUUUGCCAGAGGUGGUUUUUGAACA,0.373
CAUUUCCGUGUUCUAUUCCAGAGUGUUCUCUUCUCCCAGAGAACACUGGAACGUCCUCACAGGGAUGAAGGAAUUCUUUCUUUCCCACAGGAAAGGUGCUACUGUGUGGG,0.316
AGAGAUUGGGCUUCAGCCUUCAGCAGGUGGUUCUCUCCCAUGCCUGGCCUUGGUGUGGAGGGGCUGUACUCUGAGCCCAAGUGAGUCAGCUAUAGGAAGAGGCCAUACCU,0.31
GAGGUCAAGGACCUUCCUGUGUAGUUGGUGCAAAAGCAAUCUCCACAGGACAGCACUGCUUCCAUGCUUCAUACAUCAGGAAAUGAGGCCAGAACUUGAGUAUUUACUAA,0.227
GGAGAAAGGACUAGGGGAAGUAUCUUUCUGGAUGCUUGUGGUCCCAGAAGGGUACUUUCUGUGUCAUACCAUGCCACUUCUUUAAGCUCUUCAGGGCAGCCAAAGCCAGC,1.14

# Study 3 — target: CCNB2, cyclin fold, Cln2 fusion (human); technique: yeast growth competition, sequencing; sample: yeast; notes: weak parent motif; baseline: not given; reading: higher = stronger binding
# Starting sequence: DNAH7 docking peptide (human); HELFQRLDFDNDG; partner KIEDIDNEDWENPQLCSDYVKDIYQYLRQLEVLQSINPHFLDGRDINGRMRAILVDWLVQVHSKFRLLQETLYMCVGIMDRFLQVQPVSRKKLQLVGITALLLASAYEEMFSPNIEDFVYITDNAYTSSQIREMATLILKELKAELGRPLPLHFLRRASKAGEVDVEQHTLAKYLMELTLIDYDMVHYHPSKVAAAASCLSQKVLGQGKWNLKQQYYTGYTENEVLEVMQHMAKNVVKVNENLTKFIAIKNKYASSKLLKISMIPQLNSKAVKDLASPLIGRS
Substitution,normalised enrichment score
L3A,-0.568
Q5A,-0.143
L7A,-0.694
D10A,-0.227
G13A,-0.0494
D8A,0.0671

# Study 4 — technique: protein binding microarray; molecule type: double-stranded DNA, one strand shown; sample: in vitro; tested at: not given; baseline: not given; reading: higher = stronger binding
# Target: Histone acetyltransferase KAT6A, both winged helices, GST fusion (KAT6A, Homo sapiens, UniProt Q92794, residues 1-181)
# Notes: 8-mer, flanks averaged, mean of 2 arrays, mostly near background
# Construct (chain): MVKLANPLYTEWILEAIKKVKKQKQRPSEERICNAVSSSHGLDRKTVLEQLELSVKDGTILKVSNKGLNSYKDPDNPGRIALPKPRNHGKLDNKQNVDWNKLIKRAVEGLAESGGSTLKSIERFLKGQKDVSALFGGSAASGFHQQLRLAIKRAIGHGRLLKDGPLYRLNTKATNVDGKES
Oligonucleotide,E-score
GCAGACTA,-0.00408
GTAAATAA,-0.108
ATGTACTG,-0.176
GTGCACCA,-0.218
TCATCGAA,-0.0823
ATTGGGAC,-0.27
CTATCTTC,-0.15
GCGTAGGA,0.116
AGCCCTGA,-0.124
GTATGTTA,0.035
GAGTTTGC,0.048
AGGGGTGG,-0.21
AACAAGGA,-0.00233
CAATTGAG,-0.013
CTAGTGCA,-0.00517
CCCGCGAA,0.271
CAGTGTCC,-0.045
CTTGAATA,-0.0723
ATAACAAA,-0.00217
CGACAAAC,0.0464
AGGGGATG,-0.241
AGAAGACA,-0.213
AACTCTTA,-0.0744
CGCGGAAC,0.322
CGCTACGC,0.323

# Study 5 — technique: RNA Bind-n-Seq; molecule type: RNA; sample: in vitro; tested at: 200 nM; notes: whole 134-nt RNA, ends assumed; with: 150 mM KCl; baseline: input library; reading: higher = stronger binding
# Target: Fragile X messenger ribonucleoprotein 1, C-terminal low-complexity region (Fmr1, Mus musculus, UniProt P35922)
# Constant ends, left off below: GGGAGUUCUACAGUCCGACGAUC … UGGAAUUCUCGGGUGUCAAGG
Oligonucleotide,log2 enrichment
GUCCUGUGCUACACAUCGUAUGUACCGAAUCGGGGAAAAAAAGGGGAGGGGUUUGGGGAAAGUAUUAUGUUACGCCGUUCGGAUCUGCAC,0.34
UGGGAGGUGGAUUUUGUUUAUUUUUUUAGCUCAUUUCCAGGGGUGGGAAUUUUUUUUUAAUAUGUGUCAUGCAUAAAGUUGUUUUUGAAA,0.227
UAGAGACUUCAGAUGGAUUUUAAAAUUGAACACACUUGGGAUGGUUUUCCAGUGAAGCAUGAGCCCGUAUUUAUCAGGCUGAAUCCAGGU,-1.16
GUCCUGUGCUACACAUCGUAUGUACCGAAUCGGGGAGGGGAAAGGGGAAAAAAAGGGGAAAGUAUUAUGUUACGCCGUUCGGAUCUGCAC,0.166
GUCCUGUGCUACACAUCGUAUGUACCGAAUCGGGGUUUUUGGUUUUUGGGUUUUUGGGGAAAGUAUUAUGUUACGCCGUUCGGAUCUGCA,0.0422
AGUCCUGUGCUACACAUCGUAUGUACCGAAUCGGGGAAAAGGGAAAAGGAAAAGGGGAAAGUAUUAUGUUACGCCGUUCGGAUCUGCACU,0.474
UGCAGAUUGAUGAGUAUGAUCACUCCAAGCCCAUCCAGGGGCAACAGAAGAAGCCCUUUGAGGUGCACUGGAGGAAGCACACCCUGUCCU,-2.2
AGUCCUGUGCUACACAUCGUAUGUACCGAAUCGGGGUUUUGGGGUUUUGGUUUUGGGAAAGUAUUAUGUUACGCCGUUCGGAUCUGCACU,0.178
GAUGAGACAGAUGCUUCAUCAGCAGUGAAAGUGAAAAGAGCAGUCCAGAAAACAUCCGAUUUAAUAGUGUUGGGUCUCCCAUGGAAAACA,-0.253
CAAGUCCUGUGCUACACAUCGUAUGUACCGAAUCGGGAAAAGGAAAAGGGAAAAGGAAAGUAUUAUGUUACGCCGUUCGGAUCUGCACUU,-0.772
ACCACUGCUACAGUCACCACCACCCAGGCCUCCUAUGCAGCUCAGUCUGCAUAUGGCACUCAGCCUGCUUAUCCAGCCUAUGGGCAGCAG,0.0438
CACAGACAACACGCACCCACACAGACAAAGAGGGAAGGGGUUGGGAUGGGGACAGGGUGCACAGCAGGGCGGGGUAGGACCCCAGCCCCU,1.23
CCUGUGCUACACAUCGUAUGUACCGAAUCGGGGAAAAAGGGGUUUUUGGGGAAAAAGGGGAAAGUAUUAUGUUACGCCGUUCGGAUCUGC,0.4
GCAGGAAGUAAAAACAAAUGGAAAUGCUUCGGAUAGUGGCAGGAGUGGGGGUUGCUAAGGAAAGGGUGGGAUGGGAGUGGGUAAAGAGUU,0.518

# Further values, each from its own experiment
Substance,target,assay,test system,setting,scale,quantity,result
"PhoQ, residues 284 288 289 292 302 303 SSTMSV","PhoP, residues 12 14 15 18 19 LHHVQ (Escherichia coli, UniProt P23836)","Sort-seq, measured: YFP reporter",E. coli,"PhoQ-PhoP variant library, with: 10 µM Mg2+","baseline: high Mg2+ state, higher = stronger signaling",fold induction,18.5
